Published values of several laboratories.
Protocols differ between the studies behind these lines. ± gives the spread as reported.

SMILES | cell line | read-out | action | technique | time | IC50
O=C1C2=Nc3ccccc3CN2C(=S)N1c1ccccc1 | CEM/ADR5000 (P-gp overexpressing, multidrug-resistant) | cell viability | – | resazurin | 72 h | inactive
Cn1ncc(-c2ccc3c(=O)[nH]nc(CN)c3c2)c1-c1c(F)c(Cl)cc(OC2CC2)c1C#N | 786-O | cell viability | inhibitor | CellTiter-Glo | 120 h | 2.29 µM
COc1c(C)c(OS(=O)(=O)c2ccccc2)c(C)c(OS(=O)(=O)c2ccccc2)c1C(=O)/C=C/c1ccccc1 | KKU-M213 | cell growth or viability | – | SRB | 72 h | > 50 µM
CSC(=S)N/N=C(\C)c1ccc(Nc2nnc(-c3ccc(Cl)cc3)c3ccccc23)cc1 | MCF7 | cell growth or viability | – | MTT | – | 0.2 µM
CC(C)c1ccc(N(C)c2ccc3c(c2)OCC[C@H]3CNc2cnccc2C(=O)O)cc1 | NCI-H2347 | cell growth or viability | – | ATP luminescence | 7 days | 0.0131 µM
Cn1ccnc1S/C(=C\C=C(C#N)C#N)c1ccc(Cl)cc1 | HEK293T | viability | – | CellTiter-Glo | 48 h | 2.44 µM
C=CC(=O)N1CCCC(n2c(=O)c3ncccc3n(Cc3ccc(Oc4ccccc4)cc3)c2=O)C1 (stereo not shown) | SU-DHL-16 | cell growth or viability | – | MTT | 72 h | 1.5 µM
CCNC(=S)NN=Cc1c2ccccc2cc2ccccc12.Cc1ccc(C(C)C)cc1.[Cl-].[Cl-].[Ru+2] | CCD-18Co | cytotoxicity | – | MTS | 72 h | 253 ± 6 µM
NC(=O)c1ccc(-c2ccccc2Cl)c2c3c([nH]c12)CC[C@H](N)C3 | BXPC-3 | cell growth or viability | – | – | – | 0.0301 µM
CCOc1cncc(-c2ccc(NC(=O)C3(c4ccnc(NS(=O)(=O)C5CC5)n4)CCOCC3)nc2)n1 | OCI-Ly7 | cell growth or viability | – | ATP luminescence | 72 h | 0.004 µM
O=[P@]1(c2ccccc2)CC[C@H](O)CC1 | SW480 | cell growth or viability | – | MTT | 72 h | > 100 µM
CCCCn1cnc2ccc(-c3ccc(NC(=O)CC)nc3)cc2c1=O | NSCLC cells | cell growth | – | – | – | > 1 µM
CCCCCCCCCCCC(=O)Oc1c(C)c(OC)c2c(c1C)OC(=O)[C@@H](CCCCCCCCCC)[C@]2(O)/C=C/c1ccccc1 (relative stereo) | KKU-M213 | cell growth or viability | – | SRB | 72 h | > 50 µM
Nc1nc2cnc(C(=O)N3CCOC[C@@H]3c3ccc(C(F)(F)F)cc3)cc2c2c1COC2 | HCT-116 MTAP wild type | cell viability | – | CellTiter-Glo | 6 days | 4.33 µM
O=C(Nc1ccc(C(=O)Nc2ccc3[nH]ncc3c2)c(Cl)c1)Nc1cc(C(F)(F)F)ccc1F | KM12-Luc (TPM3-NTRK1) | cell growth | – | CellTiter-Glo | 72 h | 12.4 ± 2.37 µM
CC(=O)Oc1ccccc1C(=O)[O][Pt]([NH2])([NH2])([Cl])([Cl])[O]C(=O)CCCc1ccccc1 | LoVo oxaliplatin-resistant | cytotoxicity | – | MTT | 72 h | 0.09 ± 0.23 µM
O=C(CN1CCN(C(=O)c2ccc(F)cc2)CC1)Nc1cccc(C(=O)Nc2ccc3[nH]ncc3c2)c1 | KM12-Luc (TPM3-NTRK1) | cell growth | – | CellTiter-Glo | 72 h | > 50 µM

SMILES | cell line | read-out | action | technique | time | IC50
CCCCCCCCCC(=O)Oc1c(C)c(OC)c2c(c1C)OC(=O)C(CCCCCCCC)C2(O)C=Cc1ccccc1 (stereo not shown) | KKU-M213 | cell growth or viability | – | SRB | 72 h | > 50 µM
[BH3-][P+]1(c2ccccc2)CCC(=O)CC1 | SW480 | cell growth or viability | – | MTT | 72 h | > 100 µM
CC(=O)[O][Pt]([NH2])([NH2])([Cl])([Cl])[O]C(=O)CCC(C)C1CCC2C3CCC4CC(O)CCC4(C)C3CCC12C (stereo not shown) | LNCaP | cell growth or viability | – | MTT | 72 h | 3.9 µM
Cc1cc(C(=O)Nc2ccc3[nH]ncc3c2)ccc1NC(=O)Nc1cc(C(F)(F)F)ccc1F | KM12-Luc (TPM3-NTRK1) | cell growth | – | CellTiter-Glo | 72 h | > 50 µM
Cc1ccccc1Nc1c(-c2ccco2)nc2c(Br)cccn12 | 786-O | – | – | – | – | 39.4 µM
CC(C)Cc1ccc(C(C)C(=O)[O][Pt]([NH2])([NH2])([Cl])([Cl])[O]C(=O)C(Cl)Cl)cc1 (stereo not shown) | LoVo oxaliplatin-resistant | cytotoxicity | – | MTT | 72 h | > 3.12 µM
Cn1ncc2cc(-c3cncc(Cl)c3N3CCC4(CCNC4=O)CC3)ccc21 | LS174T | WNT reporter gene | inhibitor | TCF/LEF luciferase | – | 0.033 ± 0.012 µM
Cc1c(COc2cc(OCc3cccc(C#N)c3)c(CNC(CO)(CO)CO)cc2Cl)cccc1-c1cccc(OCCCCCCC(=O)NO)c1 | SH-SY5Y | cell growth or viability | – | CCK-8 | 48 h | > 20 µM
CC(C)C(=O)Cc1c(OCC(O)C(C)(C)O)ccc2ccc(=O)oc12 (stereo not shown) | COLO 320 multidrug resistant | cell growth | – | MTT | 72 h | 72 µM
Nc1nnc(-c2ccccc2O)cc1N1CC2CCC(C1)N2c1ccnc(C#CCCN2CCCCCC2)c1 | normal prostate epithelial cells | cell viability | – | CellTiter-Glo | 168 h | 0.185 µM
O=C(NCc1cc(F)cc(F)c1)[C@@]1(O)CCN(c2ccc3[nH]ccc3c2)C1=O | KP-4 | cell growth or viability | – | – | – | > 30 µM
CCCC(=O)Oc1c(C)c(OC)c2c(c1C)OC(=O)[C@@H](CC)[C@]2(O)/C=C/c1ccccc1 (racemic) | KKU-M213 | cell growth or viability | – | SRB | 72 h | > 50 µM
O=C(Nc1ccc(C(=O)Nc2ccc3[nH]ncc3c2)cc1F)Nc1cc(C(F)(F)F)ccc1F | KM12-Luc (TPM3-NTRK1) | cell growth | – | CellTiter-Glo | 72 h | 47.6 ± 3.2 µM
CCCCCC(=O)Oc1c(C)c(OC)c2c(c1C)OC(=O)[C@@H](CCCC)[C@]2(O)/C=C/c1ccccc1 (relative stereo) | KKU-M213 | cell growth or viability | – | SRB | 72 h | > 50 µM
Cc1c2ccnc(C(=O)N[C@H](C)CN(C)C)c2cc2c3cc(OCCCN4CCN(C)CC4)ccc3n(C)c12 | HEK293T (G4C2)66-No-ATG-GFP reporter | RAN translation of r(G4C2)exp | – | fluorescence reporter | – | 0.1 µM
CNS(=O)(=O)Nc1nccc(Cc2c(C)c3ccc(Oc4ncccc4F)cc3oc2=O)c1F | GB-1 | cell viability | – | – | 7 days | > 1 µM
O=C1CCC(N2C(=O)c3ccc(N4CCC(C(=O)N5CCC(CCN6CCC(CNC(=O)c7cccc(-c8noc(C(F)(F)F)n8)c7)(c7nc(-c8ccccc8)cs7)CC6)CC5)CC4)cc3C2=O)C(=O)N1 (stereo not shown) | SU-DHL-2 | cell growth or viability | – | CCK-8 | 7 days | 0.56 µM

Excerpt of the above:
SMILES | cell line | read-out | action | technique | time | IC50
O=C1CCC(N2C(=O)c3ccc(N4CCC(C(=O)N5CCC(CCN6CCC(CNC(=O)c7cccc(-c8noc(C(F)(F)F)n8)c7)(c7nc(-c8ccccc8)cs7)CC6)CC5)CC4)cc3C2=O)C(=O)N1 (stereo not shown) | SU-DHL-2 | cell growth or viability | – | CCK-8 | 7 days | 0.56 µM
CCCCCCCCCCCC(=O)Oc1c(C)c(OC)c2c(c1C)OC(=O)[C@@H](CCCCCCCCCC)[C@]2(O)/C=C/c1ccccc1 (relative stereo) | KKU-M213 | cell growth or viability | – | SRB | 72 h | > 50 µM
CCCC(=O)Oc1c(C)c(OC)c2c(c1C)OC(=O)[C@@H](CC)[C@]2(O)/C=C/c1ccccc1 (racemic) | KKU-M213 | cell growth or viability | – | SRB | 72 h | > 50 µM
CCCCCCCCCC(=O)Oc1c(C)c(OC)c2c(c1C)OC(=O)C(CCCCCCCC)C2(O)C=Cc1ccccc1 (stereo not shown) | KKU-M213 | cell growth or viability | – | SRB | 72 h | > 50 µM
CC(=O)Oc1ccccc1C(=O)[O][Pt]([NH2])([NH2])([Cl])([Cl])[O]C(=O)CCCc1ccccc1 | LoVo oxaliplatin-resistant | cytotoxicity | – | MTT | 72 h | 0.09 ± 0.23 µM
